{"data": "Assay results of several laboratories", "note": "Each numbered part is a random draw from the data of one study; scales do not carry over between parts."}
{"data": "Set 1", "target": "Interferon regulatory factor 7, full length, phosphomimetic (IRF7, Homo sapiens, UniProt Q92985, residues 1-503, S101K/S471D/S472D/S475D/S476D/S477D/S483D/S484D/S487D)", "method": "protein-binding microarray", "form": "double-stranded DNA, one strand shown", "medium": "in vitro", "tested at": "250 nM", "setting": "60-bp whole probe", "together with": "salmon DNA 0.4 mg/ml", "baseline": "random background probes", "reading": "higher = stronger binding", "all sequences stand within": "GCCTAGCAC … GTCTTGATTCGCTTGACGCTGCTG", "chain of UniProt Q92985 (whole entry, unmodified, looked up)": "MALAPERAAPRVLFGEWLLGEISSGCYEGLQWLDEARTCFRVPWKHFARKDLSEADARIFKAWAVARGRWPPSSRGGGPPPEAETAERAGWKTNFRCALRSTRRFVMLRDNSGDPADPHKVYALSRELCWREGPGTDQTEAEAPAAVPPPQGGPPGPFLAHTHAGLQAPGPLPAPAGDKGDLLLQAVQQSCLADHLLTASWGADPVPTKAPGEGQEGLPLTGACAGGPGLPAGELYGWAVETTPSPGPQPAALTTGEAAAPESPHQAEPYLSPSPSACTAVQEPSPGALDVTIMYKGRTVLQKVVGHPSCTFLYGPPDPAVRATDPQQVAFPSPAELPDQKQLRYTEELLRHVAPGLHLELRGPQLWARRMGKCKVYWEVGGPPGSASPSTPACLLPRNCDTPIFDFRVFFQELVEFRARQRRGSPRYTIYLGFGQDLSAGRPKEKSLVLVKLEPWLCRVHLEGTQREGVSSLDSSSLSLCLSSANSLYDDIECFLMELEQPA"}
{"Strand": "GTAGGTCTCGGTCTCGGTTAGTGCTAG", "log fluorescence [z-score]": 1.77}
{"Strand": "GACGGACGGCTTATCCTGACGTGCTAG", "log fluorescence [z-score]": -1.02}
{"Strand": "TCATGTCTGGGTCTTGGACTGTGCTAG", "log fluorescence [z-score]": -0.31}
{"Strand": "GACGGATTGCTTATCCTGACGTGCTAG", "log fluorescence [z-score]": -0.536}
{"Strand": "TTAGATTTCAGTTCCGATTCGTGCTAG", "log fluorescence [z-score]": 3.75}
{"Strand": "TCAACAATTTCAGATTCCACTGTGCTA", "log fluorescence [z-score]": 0.36}
{"Strand": "TCAGCTTTCCCGTCCAGACTGTGCTAG", "log fluorescence [z-score]": 0.619}
{"Strand": "TCATCATTTTCTTTAACACTGTGCTAG", "log fluorescence [z-score]": 0.93}
{"data": "Set 2", "target": "Replicase polyprotein 1ab, nsp13 helicase (rep, Severe acute respiratory syndrome coronavirus 2, UniProt P0DTD1)", "mode": "inhibitor", "tested at": "20 µM"}
{"SMILES": "CCN(CC)CCNC(=O)c1cc(S(C)(=O)=O)ccc1OC", "inhibition [%]": -0.31}
{"SMILES": "O=C(O)CNC(=O)c1ccccc1", "inhibition [%]": -1.69}
{"SMILES": "Cc1c(CN(C)C(=O)/C=C/c2cnc3c(c2)CCC(=O)N3)oc2ccccc12", "inhibition [%]": -1.43}
{"SMILES": "Cc1nnc(C[C@@H]2C=C(c3ccc(Cl)cc3)c3ccccc3-n3c(C)nnc32)o1", "inhibition [%]": -0.42}
{"SMILES": "Cn1cnnc1Sc1c([N+](=O)[O-])ncn1C", "inhibition [%]": 12.2}
{"SMILES": "COc1ccc(S(=O)(=O)N(CCO)c2ccccc2CN(C)C/C=C/c2ccc(Cl)cc2)cc1", "inhibition [%]": 8.53}
{"SMILES": "COc1ccc2[nH]cc(C3=CCNCC3)c2c1", "inhibition [%]": 9.16}
{"SMILES": "NC(=O)C[C@H](N)C(=O)O", "inhibition [%]": 6.17}
{"SMILES": "CC(=O)N[C@@H](CCC(N)=O)C(=O)O", "inhibition [%]": -22.7}
{"SMILES": "CC(=O)Nc1nc(C)c(-c2ccc(Cl)c(S(=O)(=O)NCCO)c2)s1", "inhibition [%]": 3.28}
{"SMILES": "CN(C)/C=N/c1c(I)cc(I)c(CCC(=O)O)c1I", "inhibition [%]": -0.92}
{"SMILES": "CN(C)C(=O)Oc1ccc[n+](C)c1", "inhibition [%]": 0.69}
{"SMILES": "NS(=O)(=O)c1cc2c(cc1Cl)N=C(CSCc1ccccc1)NS2(=O)=O", "inhibition [%]": 0.72}
{"SMILES": "C[C@H](NC[C@H](O)CP(=O)(O)Cc1ccccc1)c1ccc(Cl)c(Cl)c1", "inhibition [%]": -3.53}
{"SMILES": "CC(C)Oc1ccc(-c2nn([C@@H](C)c3oc4ccc(F)cc4c(=O)c3-c3cccc(F)c3)c3ncnc(N)c23)cc1F", "inhibition [%]": -0.27}
{"SMILES": "C#C[C@]1(O)CC[C@H]2[C@@H]3CCc4cc(OC5CCCC5)ccc4[C@H]3CC[C@@]21C", "inhibition [%]": 0.53}
{"SMILES": "O=C(O)[C@H](Cc1ccc(Nc2nccc3ccncc23)cc1)NC1=C(Br)C(=O)C12CCCCC2", "inhibition [%]": 3.32}
{"SMILES": "CCn1cc(C(=O)O)c(=O)c2cc(F)c(N3CCNCC3)nc21", "inhibition [%]": -2.88}
{"SMILES": "NCCNS(=O)(=O)c1ccc(Cl)c2ccncc12", "inhibition [%]": 5.01}
{"data": "Set 3", "target": "Phosphate system positive regulatory protein PHO4, full length, GST-tagged (PHO4, Saccharomyces cerevisiae, UniProt P07270, residues 1-312)", "method": "competition protein-binding microarray", "form": "double-stranded DNA, one strand shown", "medium": "in vitro", "tested at": "2 µM", "setting": "whole 60-bp probe, lowest competitor level", "together with": "Cbf1 competitor, 0.05 µM", "reading": "higher = stronger binding", "all sequences stand within": "… GTCTTGATTCGCTTGACGCTGCTG", "Construct (chain)": "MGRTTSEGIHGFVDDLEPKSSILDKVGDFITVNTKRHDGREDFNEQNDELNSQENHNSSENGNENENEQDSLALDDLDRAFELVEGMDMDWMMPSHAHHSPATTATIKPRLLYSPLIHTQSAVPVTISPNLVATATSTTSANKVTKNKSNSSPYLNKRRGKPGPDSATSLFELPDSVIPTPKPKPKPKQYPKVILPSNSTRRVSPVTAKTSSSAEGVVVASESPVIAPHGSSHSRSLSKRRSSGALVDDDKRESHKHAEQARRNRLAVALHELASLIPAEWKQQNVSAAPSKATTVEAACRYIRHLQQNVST"}
{"Strand": "TTGGTGTTTCTGCCTTACGTGGTGAGTTTAAGGACC", "fluorescence intensity [a.u.]": 4860}
{"Strand": "CGTTCCTGGAACAGACGCGTGGGACATTTAGCGGGG", "fluorescence intensity [a.u.]": 9080}
{"Strand": "CATACCCAACCTTGCAGAGTGGGTGAAGATATTTGT", "fluorescence intensity [a.u.]": 4200}
{"Strand": "CGGCCTGCAATGTTCCACGTGGACCACTCATCAAAC", "fluorescence intensity [a.u.]": 18000}
{"Strand": "CGTCCTAGTGATTGCAATGTGGGTGCCATGAGGAAG", "fluorescence intensity [a.u.]": 7570}
{"Strand": "ATTCCACTAGGGCTGGTCGTGGGTAACTTGGGGAGC", "fluorescence intensity [a.u.]": 6490}
{"Strand": "CTAACGAAGGTTTTTCACGTGACATACAAGCCAAGT", "fluorescence intensity [a.u.]": 12800}
{"Strand": "TGACCGTTTTGTCTTCAGGTGATGAAGCAAACAACT", "fluorescence intensity [a.u.]": 3730}
{"data": "Set 4", "cell line": "HEK-293T/ACE2", "tested at": "10 µM", "time": "16 h", "baseline": "vehicle"}
{"SMILES": "CC(C)c1nc(N(C)S(C)(=O)=O)nc(-c2ccc(F)cc2)c1/C=C/[C@@H](O)C[C@@H](O)CC(=O)O", "viability [%]": 100}
{"SMILES": "Cc1ccc(C)c(OCCCC(C)(C)C(=O)O)c1", "viability [%]": 103}
{"SMILES": "CC1COc2c(N3CCN(C)CC3)c(F)cc3c(=O)c(C(=O)O)cn1c23 (centres unmarked)", "viability [%]": 99}
{"SMILES": "Nc1nc(Cl)nc2c1ncn2[C@H]1C[C@H](O)[C@@H](CO)O1", "viability [%]": 80.7}
{"data": "Further values, each from its own experiment"}
{"Structure (SMILES)": "O=C1C(Cl)=C(N2CCOCC2)C(=O)N1c1ccc(Cl)c(Cl)c1", "tested on": "Replicase polyprotein 1ab, main protease (rep, Severe acute respiratory syndrome coronavirus 2, UniProt P0DTD1)", "test": "enzyme activity, inhibitor", "system": "SARS-CoV-2", "conditions": "together with: DTT", "measurement": "IC50", "result": "> 20 µM"}
{"Structure (SMILES)": "CCC[C@H](NC(=O)[C@@H]1[C@H]2CCC[C@H]2CN1C(=O)[C@@H](NC(=O)[C@@H](NC(=O)c1cnccn1)C1CCCCC1)C(C)(C)C)C(=O)C(=O)NC1CC1", "tested on": "SARS-CoV-2", "test": "cytopathic effect", "system": "Vero E6", "conditions": "10 µM, 96 h", "measurement": "inhibition", "result": "-0.44%"}
{"note": "Excerpt of the above (set 3):"}
{"Strand": "CGTTCCTGGAACAGACGCGTGGGACATTTAGCGGGG", "fluorescence intensity [a.u.]": 9080}
{"Strand": "CATACCCAACCTTGCAGAGTGGGTGAAGATATTTGT", "fluorescence intensity [a.u.]": 4200}
{"Strand": "CGGCCTGCAATGTTCCACGTGGACCACTCATCAAAC", "fluorescence intensity [a.u.]": 18000}
{"Strand": "CGTCCTAGTGATTGCAATGTGGGTGCCATGAGGAAG", "fluorescence intensity [a.u.]": 7570}
{"Strand": "ATTCCACTAGGGCTGGTCGTGGGTAACTTGGGGAGC", "fluorescence intensity [a.u.]": 6490}
